Measurements from different studies.
A part holds a random share of what one study measured.

Set 1 — technique: RNAcompete; form: RNA; medium: in vitro; tested at: 20 nM; notes: 7-mer, probes averaged, single round; baseline: mean of 7-mers; direction: higher = stronger binding
Target: PABPC1L2, full length, GST fusion (mouse, UniProt A0ABA7IW68)
`ACCUCUU` has a 7-mer Z-score of -0.273.
For `UCUCUUG`, the 7-mer Z-score was -0.458.
`UCGGUAA` gave a 7-mer Z-score of 0.0642.
With `CAUACAU` the 7-mer Z-score was -0.0518.
`AUCGCUU` gave a 7-mer Z-score of -0.278.
With `GCAAUCC` the 7-mer Z-score was -0.141.
With `GCCCUGU` the 7-mer Z-score was -0.331.

Set 2 — technique: protein-binding microarray; form: double-stranded DNA, one strand shown; medium: in vitro; tested at: 2200 nM top; notes: 60-bp whole probe; added: salmon DNA 0.4 mg/ml; baseline: random background probes; direction: higher = stronger binding; shared flanks, not repeated: GCCTAGCAC … GTCTTGATTCGCTTGACGCTGCTG
Target: Interferon regulatory factor 7, full length, phosphomimetic (IRF7, Homo sapiens, UniProt Q92985, residues 1-503, S471D/S472D/S475D/S476D/S477D/S483D/S484D/S487D)
Construct (chain): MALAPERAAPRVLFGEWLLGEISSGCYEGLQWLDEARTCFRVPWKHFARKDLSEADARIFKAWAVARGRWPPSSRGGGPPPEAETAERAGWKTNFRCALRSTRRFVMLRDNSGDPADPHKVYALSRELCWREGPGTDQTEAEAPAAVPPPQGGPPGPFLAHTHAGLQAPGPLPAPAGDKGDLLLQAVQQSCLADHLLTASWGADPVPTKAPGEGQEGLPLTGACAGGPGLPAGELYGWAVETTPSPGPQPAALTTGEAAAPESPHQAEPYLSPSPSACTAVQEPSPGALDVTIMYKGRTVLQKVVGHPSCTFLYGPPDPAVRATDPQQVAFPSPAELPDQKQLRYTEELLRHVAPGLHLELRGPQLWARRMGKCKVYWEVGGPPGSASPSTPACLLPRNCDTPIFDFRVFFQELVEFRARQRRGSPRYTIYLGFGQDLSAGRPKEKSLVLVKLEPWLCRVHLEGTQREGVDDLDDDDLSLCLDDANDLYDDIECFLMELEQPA
`TTAGATCTCAGACAGGATTAGTGCTAG` — result for “fitted relative affinity”: -0.151 z-score.
`CTCTGGGGGGTGGGATGAAGGTGCTAG`: “fitted relative affinity” 1.16 z-score.
Under “fitted relative affinity”, `TTAGGGATCCTTCTCCTTTAGTGCTAG` is recorded as 0.215 z-score.
`GACGGTTTCGGGTTCCGGGACGTGCTA`: “fitted relative affinity” 10.3 z-score.
Under “fitted relative affinity”, `TTTGGTTTCGGGACTGGGTTAGTGCTA` is recorded as 5.11 z-score.

Set 3 — technique: RNA Bind-n-Seq; form: RNA; medium: in vitro; tested at: 365 nM; baseline: no-protein control; direction: higher = stronger binding
Target: RNA binding protein fox-1 homolog 2, RRM domain, GST-SBP tag (RBFOX2, Homo sapiens, UniProt O43251-10, residues 100-194)
Notes: natural RNA segment, single round, ends assumed
Shared flanks, not repeated: GGGAGUUCUACAGUCCGACGAUC … UGGAAUUCUCGGGUGCCAA
Residues (chain): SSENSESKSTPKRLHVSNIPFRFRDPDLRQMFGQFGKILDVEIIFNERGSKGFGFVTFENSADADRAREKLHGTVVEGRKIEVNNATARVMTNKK
`AAGUGACCAUUUGGAUGUCUGGGCCCUGCCAAGGCGACAGGGAGGGUCAGAGGGAGGCCGGCUGCUUCCUGCCCCCACCCUUUCCCCGGGCCUGCUGUGCUGCUUUUGUG` — result for “RBNS enrichment (R)”: 0.453.
Under “RBNS enrichment (R)”, `UCAAGCCGAUGCUAGCCACUAGUUUGAUUUUUUUUCUGUUUUAUAGUUUGCGCUGCAUGGUACUUGUGAAGCUUAAAUAUUUUGAGUGUUCUACUGUGUCUAGGAUUGUU` is recorded as 2.65.
For `AAUAAAAUAACUAGAGGGAAACUUGGAUGCUAAAAUUCCAUAAGUAGAAAAAUCUUCCUGGCACUUGGUGUUUCUAUGUUAUUGAAAAAUGAUGUUCCAGAAAGAUUACU`, “RBNS enrichment (R)” read 0.554.
`AAGUGAGUGCCAAGGGGAUUUAGUGGUGUGGUUCUUUCAAAGGGAGGUCAGGGUCAAUGGGAAUCUGCUCGGACACUCAACAUGGGGGUGGGUGCACUCCUUGGAGGAGG`: “RBNS enrichment (R)” 2.4.
`AAAUAGGGAGACUGACUGAGUAGCUCAUUCUUGUGACUUACAGUGCCAACAUUUAAAAAAGUAUGAAAAUGAUUUAUUUUUAUAUGAUGUAUACCCAUAAAGAAUGCUCA` — result for “RBNS enrichment (R)”: 0.294.
For `UUCCCCAGUCCAGGGCUCCCCUGCUCCUUUCCCUUCCCUGUACUGGGGUAGCUCCUGCCUGCUCUCCCUGCGUUGCCUAGGGUAAAGCCUCCAGAUUUGCCAUACUGAGC`, “RBNS enrichment (R)” read 1.36.

Mixed results
`PhoQ, residues 284 288 289 292 302 303 AQGLTV` has a fold induction of 14.5 (PhoP, residues 12 14 15 18 19 LYFRQ (Escherichia coli, UniProt P23836); Sort-seq, refers to: YFP reporter; E. coli; PhoQ-PhoP variant library, added: 10 µM Mg2+; baseline: high Mg2+ state, higher = stronger signaling).

Repeated from above (set 3):
`AAAUAGGGAGACUGACUGAGUAGCUCAUUCUUGUGACUUACAGUGCCAACAUUUAAAAAAGUAUGAAAAUGAUUUAUUUUUAUAUGAUGUAUACCCAUAAAGAAUGCUCA` — result for “RBNS enrichment (R)”: 0.294.
For `UUCCCCAGUCCAGGGCUCCCCUGCUCCUUUCCCUUCCCUGUACUGGGGUAGCUCCUGCCUGCUCUCCCUGCGUUGCCUAGGGUAAAGCCUCCAGAUUUGCCAUACUGAGC`, “RBNS enrichment (R)” read 1.36.
